Results collected from several papers.
Each numbered part is a random draw from the data of one study; scales do not carry over between parts. Positions count from the first letter of the parent shown.

Set 1
Target: CCNB3, cyclin fold, Cln2 fusion (human)
Technique: yeast growth competition, sequencing
Matrix: yeast
Notes: strong parent motif
Baseline: not given
Reading: higher = stronger binding
Parent: BRCA2 docking peptide (human); PSIKRNLLNEFDR
For `R13N`, “normalised enrichment score” read 1.02.
`P1I` — result for “normalised enrichment score”: 1.19.
`S2N` — result for “normalised enrichment score”: 1.18.
For `I3R`, “normalised enrichment score” read -0.0923.
`K4L`: “normalised enrichment score” 0.267.
For `N9G`, “normalised enrichment score” read 0.695.
Under “normalised enrichment score”, `I3V` is recorded as 1.18.
`E10R`: “normalised enrichment score” 0.0629.
For `L7D`, “normalised enrichment score” read 0.109.

Set 2
Target: RING finger protein unkempt homolog, zinc fingers 1-6, GST-SBP tag (UNK, Homo sapiens, UniProt Q9C0B0, residues 30-357)
Technique: RNA Bind-n-Seq
Form: RNA
Matrix: in vitro
Concentration: not given
Notes: RNA with constant flanks, human and mouse sites, ends assumed
Baseline: input RNA pool
Reading: higher = stronger binding
Constant ends, left off below: GGGAGUUCUACAGUCCGACGAUC … CAACAGAGGAUUGAGCAUCA
Construct (chain): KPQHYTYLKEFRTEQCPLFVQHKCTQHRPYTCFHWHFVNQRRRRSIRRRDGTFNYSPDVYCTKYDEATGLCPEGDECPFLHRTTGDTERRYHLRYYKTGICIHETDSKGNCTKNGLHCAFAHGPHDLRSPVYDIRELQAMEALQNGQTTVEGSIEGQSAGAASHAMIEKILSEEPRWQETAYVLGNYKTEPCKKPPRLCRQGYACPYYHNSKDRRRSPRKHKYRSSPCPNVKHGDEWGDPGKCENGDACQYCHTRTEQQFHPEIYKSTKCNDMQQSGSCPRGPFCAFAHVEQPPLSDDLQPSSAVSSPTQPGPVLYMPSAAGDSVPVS
`CCACCAGAUACCGCUGCCAGACUGGGUUGGUCCCAGCCCCUAGGAAACCUUCAAGCUCCUUUAGGUUAUGAUAAAUUUAGCUAUUCUUGGCGGAGCAAAAAGGGAACCAAGUUCCACCAG` has a bound/input enrichment of 7.46 ratio.
`CUGUAAUUUCAAUUUUUUUUUUUUGCUGAAAUACAUUAUAUUGUACGUUUGAGAUAAUUCUAGUACAAAGUAUAAUAAAACUAGAUGUAUAAUAAACCCUUUAAAUCAUUGGUAAGUGUA` has a bound/input enrichment of 1.28 ratio.
With `UUUUGGAAACAGUUCAGGCUUUGGGGUGAGCCUGUCAAUCUUCGUGAACAACAUGAUGCUUUAGAGUUCUUUAAUUCUUUGGUGGAUAGUUUAGAUGAAGCUUUAAAAGCCUUAGGGCAU` the bound/input enrichment was 0.811 ratio.
With `AAGACACCACCUAGUAAUCUCUCUCCCAUUGAAGAUGCAUCUCCGACAGAAGAGUUACGUCAGGCUGCAGAAAUGGAGGAGCUCCAUAGAUCUUCUUGUUCUGAAUAUUCACCUAGCAUA` the bound/input enrichment was 2.19 ratio.
`UCUCCCAUAACAAAUGAUGGGGAAGAUGAAUUUGUUCCUUCAGAUGGCUUAGAUAAAGAUGAGUAUGCUUUUUCUUCAGGCAAAUCCAAAGCUACUCCAGAAAAAUCUUCAAAUGACAAA` has a bound/input enrichment of 0.28 ratio.
With `GCUUCCUUAGGUCUAGAGAAGUUGGUAAGCCCUCCAGCCUCAGCCGCUGCUUCCAGCCCUAGUUCUUCUCCAUCUCCACAGCCUGUUUCAGAGCUUGACAUGUCCUCAGAGCCACCUCAG` the bound/input enrichment was 0.673 ratio.
For `GACCGGAACCCCUACUACGGGGGCGAGAGCUCCUCCAUCACACCCCUGGAGGAGCUGUAUAAGCGUUUUCAGUUGCUGGAGGGGCCCCCUGAGUCGAUGGGCCGAGGCCGAGACUGGAAU`, the bound/input enrichment was 0.0832 ratio.
The bound/input enrichment of `AUGGCAACAUCAGAAGCACUCAAGAUUUCCAGAGAGGUAGAUCCAGAUGGGCGCAGAACUCUAGCUGUAAUCACUAAACUUGAUCUCAUGGAUGCGGGUACUGAUGCCAUGGAUGUAUUG` is reported as 0.182 ratio.

Set 3
Target: Interferon regulatory factor 5, full length, phosphomimetic (IRF5, Homo sapiens, UniProt Q13568-2, residues 1-514, S451D/S453D/S456D/S462D)
Technique: protein-binding microarray
Form: double-stranded DNA, one strand shown
Matrix: in vitro
Concentration: 940 nM top
Notes: 60-bp whole probe
Added: salmon DNA 0.4 mg/ml
Baseline: random background probes
Reading: higher = stronger binding
Constant ends, left off below: GCCTAGCAC … GTCTTGATTCGCTTGACGCTGCTG
Under “fitted relative affinity”, `GACGTTATCGGGTTTCGGGACGTGCTA` is recorded as 2.13 z-score.
For `CACGGTCTCCTTATCCTGACGTGCTAG`, “fitted relative affinity” read 0.547 z-score.
`TCATTTTTTTATTTATAACTGTGCTAG` — result for “fitted relative affinity”: 0.903 z-score.
`TTAGGTTTCGACACTGGATTAGTGCTA` — result for “fitted relative affinity”: 7.73 z-score.
`CCGCTTTTTTTTTTTTTTTTGTGCTAG`: “fitted relative affinity” 1.28 z-score.
`TCATACATGCATATAGTACTGTGCTAG` — result for “fitted relative affinity”: -0.0463 z-score.
For `GACGGTATGGGGTATCGGGACGTGCTA`, “fitted relative affinity” read 0.893 z-score.
`AAAGTTTTTCATTTTTTTTCGTGCTAG` — result for “fitted relative affinity”: 0.836 z-score.
Under “fitted relative affinity”, `TTAGGTCTCGGTTTCGGCTAGTGCTAG` is recorded as 7.13 z-score.
`TCAATTATATATTTATGACTGTGCTAG`: “fitted relative affinity” 0.178 z-score.
`TTAGAACTGAGACAGGATTAGTGCTAG`: “fitted relative affinity” -0.355 z-score.
Under “fitted relative affinity”, `GACGAACTGCTTCTCCTGACGTGCTAG` is recorded as -0.0909 z-score.

Further values, each from its own experiment
`PhoQ, residues 284 288 289 292 302 303 AGHLVA` gave a fold induction of 0.794 (PhoP, residues 12 14 15 18 19 NQAHL (Escherichia coli, UniProt P23836); Sort-seq, item: YFP reporter; E. coli; PhoQ-PhoP variant library, added: 10 µM Mg2+; baseline: high Mg2+ state, higher = stronger signaling).

Some of these lines once more (set 2):
With `GCUUCCUUAGGUCUAGAGAAGUUGGUAAGCCCUCCAGCCUCAGCCGCUGCUUCCAGCCCUAGUUCUUCUCCAUCUCCACAGCCUGUUUCAGAGCUUGACAUGUCCUCAGAGCCACCUCAG` the bound/input enrichment was 0.673 ratio.
For `GACCGGAACCCCUACUACGGGGGCGAGAGCUCCUCCAUCACACCCCUGGAGGAGCUGUAUAAGCGUUUUCAGUUGCUGGAGGGGCCCCCUGAGUCGAUGGGCCGAGGCCGAGACUGGAAU`, the bound/input enrichment was 0.0832 ratio.
